# Published values pooled from the literature.
# Each line is one published result; not all experiments were run side by side. Values joined by “and” are separate records of one study, mostly repeats; a detail may differ.
# Cell line: COLO 205
Structure (SMILES),assay,test system,setting,how to read,measurement,value
Cn1cc(-c2ccc(-c3cncc(Cl)c3N3CCC4(CCNC4=O)CC3)cc2)cn1,"gene expression, microarray, refers to: LMNA mRNA",,"concentration not given, 6 h",relative to: untreated cells,log2 fold change,2.28
CCn1cc(-c2cc(Cn3ccoc3=N)cc3c2CCN([C@@H](C)c2cc(OC)ccn2)C3=O)c(C(F)(F)F)n1,"cell growth, inhibitor",,120 h,,EC50,0.0151 µM
Cn1cncc1C1=CN(c2ncnc3[nH]cnc23)CCS1,,,colon cancer,,TGI,75.9 µM
CCOC(=O)CSc1nc(-c2ccc(Cl)cc2)c2c(NC(=O)c3ccccc3)nnc-2[nH]1,SRB,,"10 µM, NCI60 single-dose screen, colon cancer",relative to: untreated,cell growth,99.2%
CCn1cc(-c2cc(Cn3ccnc3)cc3c2CCN([C@H](c2cc(OC)ccn2)C2CC2)C3=O)c(C(F)(F)F)n1,"cell growth, inhibitor",,120 h,,EC50,0.239 µM
O=C1NC(=NCc2cccs2)S/C1=C\c1ccc2ncccc2c1,MTS,colon cancer,,,IC50,> 10 µM
C[C@]12CCCN1CC1=NNC(=O)c3cc(F)cc4[nH]c2c1c34,,,with: temozolomide,,EC50,> 3 µM
O=C(Nc1nnc2[nH]c(=S)[nH]c(-c3ccc(Cl)cc3)c1-2)c1ccccc1,SRB,,"10 µM, NCI60 single-dose screen, colon cancer",relative to: untreated,cell growth,122%
C#C[C@@]1(O)[C@@H](CO)O[C@@H](n2cc(Cl)c3c(N)ncnc32)[C@@H]1O,SRB,,NCI-60 screen,,TGI,0.521 µM and 0.276 µM
CCN(CC)c1ccc(C=NNC(=O)CSc2nc3ccccc3c(=O)n2Cc2ccc(S(N)(=O)=O)cc2)c(O)c1,NCI five-dose screen,,,,TGI,> 100 µM
S=C([S][Au-][P+](CCCCCC[P+]([Au-][S]C(=S)n1cccn1)(c1ccccc1)c1ccccc1)(c1ccccc1)c1ccccc1)n1cccn1,"cell growth, NCI-60 screen",,colon cancer,,log TGI,> -4 log10 M
CC(=O)Nc1cccc(-n2c(=O)n(C3CC3)c(=O)c3c(Nc4ccc(I)cc4F)n(C)c(=O)c(C)c32)c1,"cell viability, resazurin",,"50.00 nM, 72 h",relative to: DMSO,fractional effect,0.913 and 0.94

# Excerpt of the above:
Structure (SMILES),assay,test system,setting,how to read,measurement,value
Cn1cc(-c2ccc(-c3cncc(Cl)c3N3CCC4(CCNC4=O)CC3)cc2)cn1,"gene expression, microarray, refers to: LMNA mRNA",,"concentration not given, 6 h",relative to: untreated cells,log2 fold change,2.28
